Assay results from different studies.
Parts stem from different laboratories: compare values within a part only. Substitutions count along the parent as printed.

Study 1
Target: Histone acetyltransferase KAT6A, winged helix 2, GST fusion (KAT6A, Homo sapiens, UniProt Q92794, residues 85-181)
Technique: protein binding microarray
Molecule type: double-stranded DNA, one strand shown
Matrix: in vitro
Concentration: not given
Setting: 8-mer, flanks averaged, mean of 2 arrays, mostly near background
Baseline: not given
Reading: higher = stronger binding
Endpoint: E-score
Target sequence (chain): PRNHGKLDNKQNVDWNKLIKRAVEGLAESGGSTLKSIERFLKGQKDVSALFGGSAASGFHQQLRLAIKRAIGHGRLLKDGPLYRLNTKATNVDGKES
AACGAAGT: -0.00384
GACGAAGA: 0.0846
ACTACGAC: -0.0343
ACAAGGTC: -0.0447
AATTACCG: -0.0783
CAAAAATA: -0.00402
ATGGTAAT: -0.131
CCTGTCGC: 0.0499
AAAAATCG: 0.0495
CAAATTAA: 0.0332
ATGCGGAG: 0.0498
AGATGTGA: 0.095
AACAAGGC: -0.15
CTCGGCGC: 0.103
CGATGAAC: 0.0497
ATCAGCGA: 0.0818
ACCCGATG: 0.0934
AAAGTTGC: -0.0243
CCGCGGTC: 0.215
TGTACGAA: 0.0376

Study 2
Target: Sal-like protein 4, full length isoform B (SALL4, Homo sapiens, UniProt Q9UJQ4-2, residues 1-616)
Technique: universal PBM
Molecule type: double-stranded DNA, one strand shown
Matrix: in vitro
Concentration: not given
Setting: 8-mer, flanks averaged, mean of replicates
Reading: higher = stronger binding
Endpoint: E-score
Target sequence (chain): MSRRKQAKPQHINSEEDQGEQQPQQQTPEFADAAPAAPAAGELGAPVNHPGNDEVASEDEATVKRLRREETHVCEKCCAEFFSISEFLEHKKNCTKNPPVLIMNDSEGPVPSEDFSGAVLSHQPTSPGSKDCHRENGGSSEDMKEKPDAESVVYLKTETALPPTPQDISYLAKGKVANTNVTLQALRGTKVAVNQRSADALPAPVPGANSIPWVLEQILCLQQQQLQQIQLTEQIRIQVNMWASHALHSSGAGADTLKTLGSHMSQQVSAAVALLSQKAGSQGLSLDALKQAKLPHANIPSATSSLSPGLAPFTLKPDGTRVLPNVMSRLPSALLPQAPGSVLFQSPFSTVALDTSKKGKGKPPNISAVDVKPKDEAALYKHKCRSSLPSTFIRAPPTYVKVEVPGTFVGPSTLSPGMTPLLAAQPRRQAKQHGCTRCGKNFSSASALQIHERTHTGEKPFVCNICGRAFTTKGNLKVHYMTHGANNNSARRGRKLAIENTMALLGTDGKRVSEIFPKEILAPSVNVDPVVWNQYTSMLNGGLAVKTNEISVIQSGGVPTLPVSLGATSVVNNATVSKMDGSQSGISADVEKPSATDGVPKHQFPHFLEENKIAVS
ATGGCCTC: -0.183
AAGTCATG: 0.0562
AGCAACGG: -0.113
CAACTAAC: 0.011
CAAACCCC: -0.0167
ACAACTCT: 0.0784
ATGGGCCG: -0.237
CTGGGCGA: -0.24
CTCGACTA: -0.079
CATGGGCA: -0.231
ATTCGAAA: 0.143
GGCCAAGA: -0.195
CACATACC: 0.0753
CCACACAG: -0.0771
ATAGTCAC: 0.174
ATATCTGC: 0.163
CTATCCAA: 0.0886
CGTCGACA: -0.172
ATGACCTG: -0.0639
TAACACAA: 0.234
GGTCCCAC: -0.22
ACGATCAG: 0.0101

Study 3
Target: ABI1, truncated, D143A, DHFR fusion (Arabidopsis thaliana)
Technique: DHFR PCA, deep sequencing
Matrix: yeast
Setting: methotrexate growth selection, single substitutions
Added: (+)-ABA 0.0091 µM
Baseline: wild-type fitted maximum
Reading: higher = stronger binding
Endpoint: relative binding score
Starting sequence: PYL1, truncated, DHFR fusion (Arabidopsis thaliana); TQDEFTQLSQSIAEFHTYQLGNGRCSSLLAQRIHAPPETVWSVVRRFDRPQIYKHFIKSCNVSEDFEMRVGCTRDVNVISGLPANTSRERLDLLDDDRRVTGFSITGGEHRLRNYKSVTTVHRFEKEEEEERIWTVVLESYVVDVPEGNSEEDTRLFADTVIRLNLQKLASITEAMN
R88T: 43.8%
D97L: -2.64%
F5A: 3.23%
T73V: 39.7%
M68P: 0.833%
D75I: 30.7%
L93S: -8.15%
V62T: -0.443%
V100G: -7.13%
L112C: -4.49%
H110V: 14.9%
I57S: 0.979%
M68W: 4.31%
R90I: -8.16%
R88L: 9.93%
N77Q: 62.6%
H55T: 9.81%

Study 4
Target: CCND1, cyclin fold, Cln2 fusion (human)
Technique: yeast growth competition, sequencing
Matrix: yeast
Setting: weak parent motif
Baseline: not given
Reading: higher = stronger binding
Endpoint: normalised enrichment score
Starting sequence: RP1L1 docking peptide (human); TLGLGPLSFTLED
F9A: 0.366
L11A: 0.421
L7A: 0.362
P6A: 0.588
D13A: 0.551
T10A: 0.687

Study 5
Target: CREB3L1, bZIP domain (human)
Technique: DHFR protein complementation
Matrix: yeast
Setting: single substitutions, most at no-binding floor
Baseline: wild-type JUN-FOS pair
Reading: higher = stronger binding
Endpoint: binding fitness
Starting sequence: JUN, bZIP domain (human); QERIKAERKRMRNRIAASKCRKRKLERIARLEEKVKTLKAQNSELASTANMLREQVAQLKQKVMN; partner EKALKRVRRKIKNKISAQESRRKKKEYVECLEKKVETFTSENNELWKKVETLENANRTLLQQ
Q41F: -1.46 natural log
M51P: -1.46 natural log
E54R: -1.51 natural log
I28P: -1.45 natural log
V35F: -1.57 natural log
V35S: -1.43 natural log
R30S: -1.49 natural log
E33W: -1.51 natural log
Q55P: -1.46 natural log
A29W: -1.19 natural log
L38S: -1.48 natural log
K36T: -1.34 natural log
Q58A: -1.43 natural log
K39A: -1.36 natural log
Q58P: -1.31 natural log
N42P: -1.51 natural log
S47L: -1.43 natural log
E44Y: -1.53 natural log
A40H: -1.36 natural log

Study 6
Target: UBE2V1 UBC core domain (UniProt Q13404)
Technique: yeast two-hybrid
Matrix: yeast
Setting: mostly zero background
Baseline: not given
Reading: higher = stronger interaction
Endpoint: lacZ reporter activity
B1: RNF25 RING domain (UniProt Q96BH1); chain LTDNNIPHGQCVICLYGFQEKEAFTKTPCYHYFHCHCLARYIQHMEQELKAQGQEQEQERQHATTKQKAVGVQCPVCREPLVYDLASL
B2: MID1 RING domain (UniProt O15344); chain METLESELTCPICLELFEDPLLLPCAHSLCFNCAHRILVSHCATNESVESITAFQCPTCRHVITLSQRGL
B3: TRIM8 RING domain (UniProt Q9BZR9); chain WKNCFEEELICPICLHVFVEPVQLPCKHNFCRGCIGEAWAKDSGLVRCPECNQAYNQKPGLE
B4: TRIM69 RING domain (UniProt Q86WT6); chain VIQDITMELHCPLCNDWFRDPLMLSCGHNFCEACIQDFWRLQAKETFCPECKMLCQYNNCTF
B5: UHRF2 RING domain (UniProt Q96PU4); chain CGGDPEKKCHSCSCRVCGGKHEPNMQLLCDECNVAYHIYCLNPPLDKVPEEEYWYCPSCKTDSSEVVKAGER
B6: PHF21A RING domain (UniProt Q96BD5); chain SPTSTDGDIHEDFCSVCRKSGQLLMCDTCSRVYHLDCLDPPLKTIPKGMWICPRCQDQMLKKEEAIPW
B7: CUL9 RING domain (UniProt Q8IWT3); chain AQAVPVRPDHCPVCVSPLGCDDDLPSLCCMHYCCKSCWNEYLTTRIEQNLVLNCTCPIADCPAQPTGAFIR
Residues (chain): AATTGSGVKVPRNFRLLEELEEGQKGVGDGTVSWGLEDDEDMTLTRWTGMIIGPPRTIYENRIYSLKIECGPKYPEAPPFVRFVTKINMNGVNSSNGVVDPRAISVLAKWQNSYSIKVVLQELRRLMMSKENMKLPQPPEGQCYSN
B1 (RNF25 RING domain): 0
QLRRLQEERTCKVCMDKEVSIVFIPCGHLVVCKDCAPSLRKCPICRSTIKGTVRTF (BIRC3 RING domain (UniProt Q13489)): 0
DAIPSLSECQCGICMEILVEPVTLPCNHTLCKPCFQSTVEKASLCCPFCRRRVSSWTRYH (RNF168 RING domain (UniProt Q8IYW5)): 0
B2 (MID1 RING domain): 0
VTLSLTLPITCHICLGKVRQPVICINNHVFCSICIDLWLKNNSQCPACRVPITPENPCK (OBI1 RING domain (UniProt Q5W0B1)): 0
B3 (TRIM8 RING domain): 0
KTLSRFGIQPCSICLGDAKDPVCLPCDHVHCLRCLRAWFASEQMICPYCLTALPDEFSPA (RNF213 RING domain (UniProt Q63HN8)): 0
B4 (TRIM69 RING domain): 0
B5 (UHRF2 RING domain): 0
PEELQAMDNVCIICREEMVTGAKRLPCNHIFHTSCLRSWFQRQQTCPTCRMDVLRASLPA (SYVN1 RING domain (UniProt Q86TM6)): 0
QHHELTSLFECPVCFDYVLPPILQCQAGHLVCNQCRQKLSCCPTCRGALTPSIRNL (SIAH2 RING domain (UniProt O43255)): 0
B6 (PHF21A RING domain): 0
B7 (CUL9 RING domain): 0
DDENSDNSNECVVCLSDLRDTLILPCRHLCLCTSCADTLRYQANNCPICRLPFRALLQIR (MGRN1 RING domain (UniProt O60291)): 0

Study 7
Target: Interferon regulatory factor 3, full length, phosphomimetic (IRF3, Homo sapiens, UniProt Q14653, residues 1-427, S386D/S396D/S398D/S402D/T404D/S405D)
UniProt Q14653, sequence (whole entry, unmodified, looked up): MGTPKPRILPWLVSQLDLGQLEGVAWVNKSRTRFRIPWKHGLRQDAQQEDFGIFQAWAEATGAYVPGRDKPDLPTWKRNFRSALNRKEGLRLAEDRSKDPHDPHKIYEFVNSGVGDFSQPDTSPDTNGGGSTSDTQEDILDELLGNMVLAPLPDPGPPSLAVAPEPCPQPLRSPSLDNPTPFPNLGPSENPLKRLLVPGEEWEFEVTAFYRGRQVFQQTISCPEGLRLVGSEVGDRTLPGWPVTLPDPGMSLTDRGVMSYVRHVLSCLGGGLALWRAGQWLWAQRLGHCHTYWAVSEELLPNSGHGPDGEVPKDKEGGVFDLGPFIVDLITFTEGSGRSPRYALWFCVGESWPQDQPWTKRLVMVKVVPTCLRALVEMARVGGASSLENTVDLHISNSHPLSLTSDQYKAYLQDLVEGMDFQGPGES
Technique: protein-binding microarray
Molecule type: double-stranded DNA, one strand shown
Matrix: in vitro
Concentration: 2540 nM top
Setting: 60-bp whole probe
Added: salmon DNA 0.4 mg/ml
Baseline: random background probes
Reading: higher = stronger binding
Endpoint: fitted relative affinity
Constant ends, left off below: GCCTAGCAC … GTCTTGATTCGCTTGACGCTGCTG
TTAGGACTGCATTTCCTTTAGTGCTAG: 0.61 z-score
TTAGAACTAAGACTGGATTAGTGCTAG: -0.378 z-score
GACGGTATCGATATCGGGACGTGCTAG: 2.73 z-score
TTAGGTATGGGGTTTCGGTTAGTGCTA: 2.45 z-score
TCATCTTTTCTTTTCTTACTGTGCTAG: 3.46 z-score
TTAGGTTTCCTACTCCTTTAGTGCTAG: 6.71 z-score
TGAGATCTCAGTCTCGATTAGTGCTAG: 0.448 z-score
TCAGATATAGGATAACGAGCCGTGCTA: 0.0575 z-score
TTAGGTGTCCTTCTCCTTTAGTGCTAG: 4.74 z-score
GCACCTCTAGACTCTAAATTCGTGCTA: -0.0163 z-score
TTAGGACTGGTGTTTCGGTTAGTGCTA: 2.22 z-score
TCAAGTCCCGAGAATGGTACTGTGCTA: -0.471 z-score
TCACCTTTGCCTCTGAGACTGTGCTAG: 0.219 z-score
GACGGTCTCCTTTACCTGACGTGCTAG: 2.24 z-score
TCATTTTTCTAGTCCAGACTGTGCTAG: 1.77 z-score
CTCTCTTCACATATAATTTTGTGCTAG: 0.967 z-score
ACCCGTACTGGGTCTGGATCGTGCTAG: -0.0949 z-score
TCAGCTTTGCCTTTTGCACTGTGCTAG: 0.376 z-score
